{"sequences": {"note": "Protein sequences, listed by entry. Tags and fused reporters are not part of them. Residues count along the entry.", "UniProt P41143, whole entry": "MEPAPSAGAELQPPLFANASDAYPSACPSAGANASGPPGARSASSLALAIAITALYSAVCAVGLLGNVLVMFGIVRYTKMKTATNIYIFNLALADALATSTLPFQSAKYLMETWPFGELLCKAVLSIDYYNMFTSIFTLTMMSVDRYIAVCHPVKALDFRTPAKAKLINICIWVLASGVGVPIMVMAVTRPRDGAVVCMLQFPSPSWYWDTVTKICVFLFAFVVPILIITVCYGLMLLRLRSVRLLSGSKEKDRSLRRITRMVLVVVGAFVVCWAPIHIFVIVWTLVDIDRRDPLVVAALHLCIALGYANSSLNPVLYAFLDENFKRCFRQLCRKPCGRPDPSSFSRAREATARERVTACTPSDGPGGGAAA", "UniProt Q96PH1, 1-719 isoform 4": "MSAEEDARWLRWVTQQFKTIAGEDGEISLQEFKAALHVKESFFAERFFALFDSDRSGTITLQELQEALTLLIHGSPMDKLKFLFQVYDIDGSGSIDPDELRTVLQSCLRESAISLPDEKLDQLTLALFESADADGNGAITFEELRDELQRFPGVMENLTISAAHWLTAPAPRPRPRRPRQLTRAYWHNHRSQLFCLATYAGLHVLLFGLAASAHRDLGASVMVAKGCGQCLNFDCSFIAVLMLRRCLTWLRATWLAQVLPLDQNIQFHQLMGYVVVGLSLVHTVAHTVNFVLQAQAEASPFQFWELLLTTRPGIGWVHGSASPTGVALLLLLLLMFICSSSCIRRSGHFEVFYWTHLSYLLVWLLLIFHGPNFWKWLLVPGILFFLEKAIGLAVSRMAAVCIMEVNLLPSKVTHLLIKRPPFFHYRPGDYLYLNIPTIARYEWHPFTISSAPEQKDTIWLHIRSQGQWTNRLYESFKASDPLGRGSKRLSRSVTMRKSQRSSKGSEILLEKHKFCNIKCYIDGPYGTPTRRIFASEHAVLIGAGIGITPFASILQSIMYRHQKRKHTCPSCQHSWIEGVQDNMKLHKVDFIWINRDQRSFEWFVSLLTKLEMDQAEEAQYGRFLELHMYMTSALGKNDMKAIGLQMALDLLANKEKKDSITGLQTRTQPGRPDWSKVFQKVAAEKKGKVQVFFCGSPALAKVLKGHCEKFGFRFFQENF", "UniProt P31652, whole entry": "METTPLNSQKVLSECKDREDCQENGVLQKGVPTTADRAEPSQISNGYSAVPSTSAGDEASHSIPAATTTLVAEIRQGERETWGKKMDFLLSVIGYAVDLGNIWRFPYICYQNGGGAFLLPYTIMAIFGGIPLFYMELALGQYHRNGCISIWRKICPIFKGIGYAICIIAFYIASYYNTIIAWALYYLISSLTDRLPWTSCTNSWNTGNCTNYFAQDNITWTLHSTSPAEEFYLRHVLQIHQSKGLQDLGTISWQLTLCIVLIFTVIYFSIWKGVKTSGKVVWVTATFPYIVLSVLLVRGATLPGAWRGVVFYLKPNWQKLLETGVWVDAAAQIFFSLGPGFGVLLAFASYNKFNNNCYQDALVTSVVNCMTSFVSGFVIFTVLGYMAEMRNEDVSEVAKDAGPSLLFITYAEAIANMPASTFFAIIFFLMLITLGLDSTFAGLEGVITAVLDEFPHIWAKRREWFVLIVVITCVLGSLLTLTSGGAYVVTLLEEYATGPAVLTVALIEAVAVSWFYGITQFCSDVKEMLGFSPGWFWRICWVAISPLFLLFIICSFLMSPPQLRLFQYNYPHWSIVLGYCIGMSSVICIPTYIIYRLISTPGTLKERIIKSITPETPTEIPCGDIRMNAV", "UniProt P23977, whole entry": "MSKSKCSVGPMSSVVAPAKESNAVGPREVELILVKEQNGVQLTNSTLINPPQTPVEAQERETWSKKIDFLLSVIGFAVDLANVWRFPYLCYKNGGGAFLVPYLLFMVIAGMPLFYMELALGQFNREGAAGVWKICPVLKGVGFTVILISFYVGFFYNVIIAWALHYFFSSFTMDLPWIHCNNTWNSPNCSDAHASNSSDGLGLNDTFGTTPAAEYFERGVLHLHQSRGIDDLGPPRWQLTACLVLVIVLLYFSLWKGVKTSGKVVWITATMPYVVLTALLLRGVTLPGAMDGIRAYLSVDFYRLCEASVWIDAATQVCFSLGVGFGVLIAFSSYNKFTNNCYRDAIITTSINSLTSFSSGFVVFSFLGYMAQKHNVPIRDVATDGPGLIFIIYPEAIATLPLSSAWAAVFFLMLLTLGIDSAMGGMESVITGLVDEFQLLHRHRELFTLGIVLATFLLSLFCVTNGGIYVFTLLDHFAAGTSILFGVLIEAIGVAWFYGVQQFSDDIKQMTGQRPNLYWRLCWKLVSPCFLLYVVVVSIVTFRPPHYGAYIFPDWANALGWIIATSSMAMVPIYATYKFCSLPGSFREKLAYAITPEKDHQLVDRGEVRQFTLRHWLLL", "UniProt P35372, whole entry": "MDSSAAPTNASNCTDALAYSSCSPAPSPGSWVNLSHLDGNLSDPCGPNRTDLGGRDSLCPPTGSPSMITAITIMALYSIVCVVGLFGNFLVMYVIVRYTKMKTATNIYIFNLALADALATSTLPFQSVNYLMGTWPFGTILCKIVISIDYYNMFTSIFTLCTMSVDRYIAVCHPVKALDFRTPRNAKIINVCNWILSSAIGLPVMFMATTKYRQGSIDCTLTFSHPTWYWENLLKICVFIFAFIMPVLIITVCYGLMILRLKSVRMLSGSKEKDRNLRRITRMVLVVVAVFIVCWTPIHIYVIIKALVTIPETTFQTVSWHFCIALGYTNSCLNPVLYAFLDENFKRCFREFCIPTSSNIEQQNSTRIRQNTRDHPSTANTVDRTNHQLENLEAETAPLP", "UniProt P41145, whole entry": "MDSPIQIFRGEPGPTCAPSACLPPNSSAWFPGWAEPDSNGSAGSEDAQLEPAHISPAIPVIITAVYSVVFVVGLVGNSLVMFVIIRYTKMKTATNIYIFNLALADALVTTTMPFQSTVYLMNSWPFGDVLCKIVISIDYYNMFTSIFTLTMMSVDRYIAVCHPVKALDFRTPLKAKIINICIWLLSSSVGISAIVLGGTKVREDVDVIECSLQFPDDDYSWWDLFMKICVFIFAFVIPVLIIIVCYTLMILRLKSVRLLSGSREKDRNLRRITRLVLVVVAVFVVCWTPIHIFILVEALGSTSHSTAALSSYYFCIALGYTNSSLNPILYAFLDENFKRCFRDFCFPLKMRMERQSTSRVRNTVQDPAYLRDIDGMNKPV", "UniProt P23275, whole entry": "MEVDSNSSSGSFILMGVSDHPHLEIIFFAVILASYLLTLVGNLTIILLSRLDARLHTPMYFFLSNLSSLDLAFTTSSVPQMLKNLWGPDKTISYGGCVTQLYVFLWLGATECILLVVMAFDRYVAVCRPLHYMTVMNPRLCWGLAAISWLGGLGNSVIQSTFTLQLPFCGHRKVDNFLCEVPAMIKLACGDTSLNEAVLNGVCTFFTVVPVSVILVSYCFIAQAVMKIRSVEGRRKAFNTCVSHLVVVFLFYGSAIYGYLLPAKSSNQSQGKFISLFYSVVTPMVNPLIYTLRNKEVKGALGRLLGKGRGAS", "UniProt Q9UQB9, whole entry": "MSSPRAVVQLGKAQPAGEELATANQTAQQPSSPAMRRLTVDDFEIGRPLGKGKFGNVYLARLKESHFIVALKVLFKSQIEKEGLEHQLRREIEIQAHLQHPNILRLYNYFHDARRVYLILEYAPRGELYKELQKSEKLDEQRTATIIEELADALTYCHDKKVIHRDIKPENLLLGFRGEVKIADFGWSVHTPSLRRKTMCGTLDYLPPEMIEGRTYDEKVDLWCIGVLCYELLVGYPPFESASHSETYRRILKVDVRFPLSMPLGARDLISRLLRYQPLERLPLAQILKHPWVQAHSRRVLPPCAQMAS", "UniProt Q04912, whole entry, looked up": "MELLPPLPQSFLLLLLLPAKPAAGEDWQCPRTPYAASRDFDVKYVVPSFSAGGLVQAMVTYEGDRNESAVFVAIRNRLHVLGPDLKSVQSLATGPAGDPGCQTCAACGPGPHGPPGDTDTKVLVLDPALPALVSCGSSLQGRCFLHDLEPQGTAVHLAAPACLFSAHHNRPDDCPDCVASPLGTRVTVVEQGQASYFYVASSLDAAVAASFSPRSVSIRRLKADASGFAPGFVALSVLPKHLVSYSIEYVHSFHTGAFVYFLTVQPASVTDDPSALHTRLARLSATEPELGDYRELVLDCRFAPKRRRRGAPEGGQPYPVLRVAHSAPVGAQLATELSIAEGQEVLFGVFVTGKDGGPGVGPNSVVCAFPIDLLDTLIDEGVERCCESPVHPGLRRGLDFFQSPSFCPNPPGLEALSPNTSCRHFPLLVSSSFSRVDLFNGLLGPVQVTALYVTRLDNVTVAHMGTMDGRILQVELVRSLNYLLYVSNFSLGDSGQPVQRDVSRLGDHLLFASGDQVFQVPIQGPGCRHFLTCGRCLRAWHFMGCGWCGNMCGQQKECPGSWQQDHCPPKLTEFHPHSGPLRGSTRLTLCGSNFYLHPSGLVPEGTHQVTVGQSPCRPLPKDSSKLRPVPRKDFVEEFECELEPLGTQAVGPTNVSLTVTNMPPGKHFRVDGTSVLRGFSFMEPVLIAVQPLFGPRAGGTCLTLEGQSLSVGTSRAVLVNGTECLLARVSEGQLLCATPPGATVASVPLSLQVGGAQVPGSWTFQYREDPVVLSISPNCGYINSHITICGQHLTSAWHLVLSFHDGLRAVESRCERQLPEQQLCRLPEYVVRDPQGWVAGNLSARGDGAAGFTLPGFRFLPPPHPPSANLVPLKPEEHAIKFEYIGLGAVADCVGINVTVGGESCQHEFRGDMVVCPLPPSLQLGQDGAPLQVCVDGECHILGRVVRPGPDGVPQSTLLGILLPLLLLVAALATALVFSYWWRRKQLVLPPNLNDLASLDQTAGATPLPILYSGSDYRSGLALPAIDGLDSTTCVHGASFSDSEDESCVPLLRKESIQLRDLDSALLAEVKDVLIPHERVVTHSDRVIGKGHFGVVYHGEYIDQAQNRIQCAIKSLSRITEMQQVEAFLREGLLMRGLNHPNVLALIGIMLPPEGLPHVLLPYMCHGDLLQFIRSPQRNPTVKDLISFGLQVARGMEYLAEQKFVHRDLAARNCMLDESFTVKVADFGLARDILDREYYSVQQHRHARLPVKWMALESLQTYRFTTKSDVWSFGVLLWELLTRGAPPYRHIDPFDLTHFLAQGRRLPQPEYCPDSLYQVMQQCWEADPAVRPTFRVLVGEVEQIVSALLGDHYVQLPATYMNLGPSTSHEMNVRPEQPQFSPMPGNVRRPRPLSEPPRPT", "UniProt P33534, whole entry": "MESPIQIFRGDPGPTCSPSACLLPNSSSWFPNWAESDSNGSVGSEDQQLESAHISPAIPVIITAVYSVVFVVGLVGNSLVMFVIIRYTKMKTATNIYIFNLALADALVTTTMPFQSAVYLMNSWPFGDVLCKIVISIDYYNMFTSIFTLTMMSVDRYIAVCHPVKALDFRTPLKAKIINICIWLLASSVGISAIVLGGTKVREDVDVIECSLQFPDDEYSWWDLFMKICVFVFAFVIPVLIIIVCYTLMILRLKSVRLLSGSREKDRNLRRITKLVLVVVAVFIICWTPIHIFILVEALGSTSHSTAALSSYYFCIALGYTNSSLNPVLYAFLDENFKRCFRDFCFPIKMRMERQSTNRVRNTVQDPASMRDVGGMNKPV", "UniProt Q9GZN0, whole entry": "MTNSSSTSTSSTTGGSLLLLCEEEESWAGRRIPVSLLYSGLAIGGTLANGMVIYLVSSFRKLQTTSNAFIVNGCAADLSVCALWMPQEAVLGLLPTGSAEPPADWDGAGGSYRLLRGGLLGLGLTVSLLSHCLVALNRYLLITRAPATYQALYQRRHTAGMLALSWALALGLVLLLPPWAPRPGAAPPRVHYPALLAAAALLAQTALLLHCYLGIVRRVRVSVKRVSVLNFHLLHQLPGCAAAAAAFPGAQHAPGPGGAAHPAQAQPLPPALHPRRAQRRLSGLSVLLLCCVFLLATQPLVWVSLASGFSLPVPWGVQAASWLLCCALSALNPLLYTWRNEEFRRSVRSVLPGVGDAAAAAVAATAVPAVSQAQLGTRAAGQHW", "UniProt B0JCV9, 1-390": "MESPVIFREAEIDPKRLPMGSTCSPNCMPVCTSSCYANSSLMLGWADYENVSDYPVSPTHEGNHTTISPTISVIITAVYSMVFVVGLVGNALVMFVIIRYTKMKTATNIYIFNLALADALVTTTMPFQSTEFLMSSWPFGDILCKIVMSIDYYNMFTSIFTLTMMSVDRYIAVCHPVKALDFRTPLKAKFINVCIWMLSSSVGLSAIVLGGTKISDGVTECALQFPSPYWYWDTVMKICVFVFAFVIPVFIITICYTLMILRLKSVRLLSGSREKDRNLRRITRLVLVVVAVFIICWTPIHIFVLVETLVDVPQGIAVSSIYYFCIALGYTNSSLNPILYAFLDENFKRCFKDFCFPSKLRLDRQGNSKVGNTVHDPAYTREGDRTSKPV"}, "data": "Assay results gathered from unrelated publications", "OPRD1": "Delta-type opioid receptor (OPRD1, Homo sapiens, UniProt P41143)", "NOX5": "NADPH oxidase 5 (NOX5, Homo sapiens, UniProt Q96PH1)", "Slc6a4": "Sodium-dependent serotonin transporter (Slc6a4, Rattus norvegicus, UniProt P31652)", "Slc6a3": "Sodium-dependent dopamine transporter (Slc6a3, Rattus norvegicus, UniProt P23977)", "OPRM1": "Mu-type opioid receptor (OPRM1, Homo sapiens, UniProt P35372)", "OPRK1": "Kappa-type opioid receptor (OPRK1, Homo sapiens, UniProt P41145)", "Or2c1": "Or2c1 (Mus musculus, UniProt P23275)", "note": "Compare with care: the assays were run in different laboratories. Values joined by “and” are separate records of one study, mostly repeats; a detail may differ. ± gives the spread as reported."}
{"Substance": "CCN1CCN(Cc2ccc(NC(=O)c3ccc(C)c(/C=C/c4cnc5[nH]ccc5c4OC)c3)cc2C(F)(F)F)CC1", "target": "Aurora kinase C (AURKC, Homo sapiens, UniProt Q9UQB9)", "assay": "inhibitor, cell-based kinome screen", "setting": "5 µM", "scale": "reference: no inhibitor", "measurement": "log2 fold change", "value": 0.536}
{"Substance": "CC[C@@](O)(c1ccccc1)[C@H]1C[C@@]23CC[C@]1(OC)[C@@H]1Oc4c(O)ccc5c4[C@@]12CCN(CC1CC1)[C@@H]3C5", "target": "OPRD1", "assay": "G-protein activation, agonist", "measurement": "EC50", "value": "8.9 ± 1.8 nM"}
{"Substance": "Cc1cccc2oc(Sc3ncnc4c3nnn4Cc3ccccc3)nc12", "target": "NOX5", "assay": "enzyme activity, Amplex Red", "system": "NOX5-overexpressing cells", "measurement": "EC50", "value": "2600 ± 1000 nM"}
{"Substance": "CC#C/C(=N\\OC[C@H]1COCCN1)c1ccc2ncnc(Nc3ccc(OCc4cccc(F)c4)c(Cl)c3)c2c1", "target": "MST1R (Homo sapiens, UniProt Q04912)", "assay": "kinase activity", "setting": "10 µM", "measurement": "inhibition", "value": "19.5%"}
{"Substance": "Cn1cc(CCN)c2ccccc21", "target": "Slc6a4", "assay": "serotonin release, releaser", "system": "rat brain synaptosomes", "measurement": "EC50", "value": "53.1 ± 4.9 nM"}
{"Substance": "methoxymethyl salvinorin B", "target": "Oprk1 (Mus musculus, UniProt P33534)", "assay": "agonist", "setting": "mouse receptor", "measurement": "EC50", "value": "0.81 nM"}
{"Substance": "Fc1ccc2nc(Sc3ncnc4c3nnn4Cc3ccccc3)oc2c1", "target": "NOX5", "assay": "enzyme activity, Amplex Red", "system": "NOX5-overexpressing cells", "measurement": "EC50", "value": "5100 ± 800 nM"}
{"Substance": "CNCCc1c[nH]c2ccccc12", "target": "Slc6a3", "assay": "dopamine release, releaser", "system": "rat striatal synaptosomes", "measurement": "EC50", "value": "321 ± 23 nM"}
{"Substance": "CC[C@](O)([C@H]1C[C@@]23C=C[C@]1(OC)[C@@H]1Oc4c(O)ccc5c4[C@@]12CCN(CC1CC1)[C@@H]3C5)C(C)(C)C", "target": "OPRM1", "assay": "G-protein activation, agonist", "scale": "reference: DAMGO", "measurement": "EC50", "value": "238 ± 19 nM"}
{"Substance": "CN(C(=O)Cc1ccc(Cl)c(Cl)c1)[C@H](CN1CCCC1)c1ccccc1", "target": "OPRK1", "assay": "agonist", "setting": "human receptor", "measurement": "EC50", "value": "0.24 nM"}
{"Substance": "Cc1ccc2oc(Sc3ncnc4c3nnn4Cc3ccccc3)nc2c1", "target": "NOX5", "assay": "enzyme activity, Amplex Red", "system": "NOX5-overexpressing cells", "measurement": "EC50", "value": "2700 ± 800 nM"}
{"Substance": "CC(=O)c1ccccc1", "target": "Or2c1", "assay": "ion current, agonist, two-electrode voltage clamp", "system": "Xenopus oocytes", "setting": "15 s", "measurement": "EC50", "value": "38000 ± 30000 nM"}
{"Substance": "CO[C@]12C=C[C@@]3(C[C@@H]1[C@H](O)c1ccccc1)[C@H]1Cc4ccc(O)c5c4[C@@]3(CCN1CC1CC1)[C@H]2O5", "target": "OPRM1", "assay": "G-protein activation, agonist", "scale": "reference: DAMGO", "measurement": "EC50", "value": "2.75 ± 1.05 nM"}
{"Substance": "Cc1cccc2c(CCN)c[nH]c12", "target": "Slc6a3", "assay": "dopamine release, releaser", "system": "rat brain synaptosomes", "measurement": "EC50", "value": "3380 ± 220 nM"}
{"Substance": "NCCc1c[nH]c2ccccc12", "target": "Slc6a4", "assay": "serotonin release, releaser", "system": "rat brain synaptosomes", "measurement": "EC50", "value": "32.6 ± 2.6 nM"}
{"Substance": "CCC[C@H](C)COc1ccc([C@@H](CO)C(=O)N[C@H](C)c2ccccc2)cc1", "target": "G protein-coupled receptor 88 (Homo sapiens, UniProt Q9GZN0)", "assay": "cAMP level, agonist, TR-FRET", "system": "CHO overexpressing G protein-coupled receptor 88", "setting": "added: forskolin 300 nM", "measurement": "EC50", "value": "468 nM"}
{"Substance": "Cc1ccc2nc(Sc3ncnc4c3nnn4Cc3ccccc3)oc2c1", "target": "NADPH oxidase 4 (NOX4, Homo sapiens, UniProt Q9NPH5)", "assay": "enzyme activity, inhibitor, Amplex Red", "system": "cell-free membranes", "measurement": "EC50", "value": "7000 ± 4000 nM"}
{"Substance": "COc1cccc2[nH]cc(CCN)c12", "target": "Slc6a3", "assay": "dopamine release, releaser", "system": "rat brain synaptosomes", "measurement": "EC50", "value": "> 10000 nM"}
{"Substance": "CO[C@]12CC[C@@]3(C[C@@H]1[C@](C)(O)c1ccccc1)[C@H]1Cc4ccc(O)c5c4[C@@]3(CCN1CC1CC1)[C@H]2O5", "target": "OPRD1", "assay": "G-protein activation, agonist", "measurement": "EC50", "value": "2.66 ± 0.34 nM"}
{"Substance": "c1ccc(Cn2nnc3c(Sc4nc5ncccc5o4)ncnc32)cc1", "target": "NOX5", "assay": "enzyme activity, Amplex Red", "system": "NOX5-overexpressing cells", "measurement": "EC50", "value": "> 15000 nM"}
{"Substance": "Cc1ccc2[nH]cc(CCN)c2c1", "target": "Slc6a3", "assay": "dopamine release, releaser", "system": "rat brain synaptosomes", "measurement": "EC50", "value": "> 10000 nM"}
{"Substance": "CN(C(=O)Cc1cccc2occc12)[C@H]1CC[C@@]2(CCCO2)C[C@@H]1N1CCCC1", "target": "OPRK1", "assay": "receptor internalization, agonist, on-cell western", "system": "N2a", "setting": "1 h, human receptor", "measurement": "EC50", "value": "3.9 nM"}
{"Substance": "COC(=O)[C@@H]1C[C@H](OC(C)=O)C(=O)[C@H]2[C@@]1(C)CC[C@H]1C(=O)O[C@H](c3ccoc3)C[C@]21C", "target": "Kappa-type opioid receptor (Lithobates pipiens, UniProt B0JCV9)", "assay": "cAMP production, agonist, GloSensor", "system": "HEK-293T", "setting": "added: isoproterenol", "measurement": "EC50", "value": "69 nM"}
{"Substance": "COc1ccc2nc(Sc3ncnc4c3nnn4Cc3ccccc3)oc2c1", "target": "NOX5", "assay": "enzyme activity, Amplex Red", "system": "NOX5-overexpressing cells", "measurement": "EC50", "value": "3300 ± 700 nM"}
{"Substance": "Cc1cccc([N+](=O)[O-])c1", "target": "Or2c1", "assay": "ion current, agonist, two-electrode voltage clamp", "system": "Xenopus oocytes", "setting": "15 s", "measurement": "EC50", "value": "37000 ± 13000 nM"}
{"Substance": "CC[C@@H](N)Cc1c[nH]c2ccccc12", "target": "Slc6a4", "assay": "serotonin release, releaser", "system": "rat brain synaptosomes", "measurement": "EC50", "value": "34.7 ± 4.9 nM"}
{"Substance": "CC[C@](O)([C@H]1C[C@@]23CC[C@]1(OC)[C@@H]1Oc4c(O)ccc5c4[C@@]12CCN(CC1CC1)[C@@H]3C5)C(C)(C)C", "target": "OPRK1", "assay": "G-protein activation, agonist", "measurement": "EC50", "value": "183 ± 9.4 nM"}
{"Substance": "NCCc1c[nH]c2cccc(F)c12", "target": "Slc6a4", "assay": "serotonin release, releaser", "system": "rat brain synaptosomes", "measurement": "EC50", "value": "108 ± 9 nM"}
{"Substance": "ethoxymethyl salvinorin B", "target": "OPRK1", "assay": "agonist", "setting": "human receptor", "measurement": "EC50", "value": "2.3 nM"}
{"Substance": "c1ccc(Cn2nnc3c(Sc4nc5ccccc5[nH]4)ncnc32)cc1", "target": "NOX5", "assay": "enzyme activity, Amplex Red", "system": "NOX5-overexpressing cells", "measurement": "EC50", "value": "> 15000 nM"}
{"Substance": "CC[C@@](O)(c1ccccc1)[C@H]1C[C@@]23C=C[C@]1(OC)[C@@H]1Oc4c(O)ccc5c4[C@@]12CCN(CC1CC1)[C@@H]3C5", "target": "OPRD1", "assay": "G-protein activation, agonist", "measurement": "EC50", "value": "10.2 ± 2.4 nM"}
{"Substance": "NCCc1c[nH]c2c(Cl)cccc12", "target": "Slc6a4", "assay": "serotonin release, releaser", "system": "rat brain synaptosomes", "measurement": "EC50", "value": "8 nM and 8.03 nM"}
{"Substance": "CO[C@]12CC[C@@]3(C[C@@H]1[C@@H](O)c1ccccc1)[C@H]1Cc4ccc(O)c5c4[C@@]3(CCN1CC1CC1)[C@H]2O5", "target": "OPRD1", "assay": "G-protein activation, agonist", "measurement": "EC50", "value": "0.64 ± 0.17 nM"}
{"Substance": "Cc1ccc2c(CCN)c[nH]c2c1", "target": "Slc6a4", "assay": "serotonin release, releaser", "system": "rat brain synaptosomes", "measurement": "EC50", "value": "51.6 ± 5.8 nM"}
{"note": "Excerpt of the above:"}
{"Substance": "CO[C@]12C=C[C@@]3(C[C@@H]1[C@H](O)c1ccccc1)[C@H]1Cc4ccc(O)c5c4[C@@]3(CCN1CC1CC1)[C@H]2O5", "target": "OPRM1", "assay": "G-protein activation, agonist", "scale": "reference: DAMGO", "measurement": "EC50", "value": "2.75 ± 1.05 nM"}
{"Substance": "CNCCc1c[nH]c2ccccc12", "target": "Slc6a3", "assay": "dopamine release, releaser", "system": "rat striatal synaptosomes", "measurement": "EC50", "value": "321 ± 23 nM"}
{"Substance": "Cc1cccc2oc(Sc3ncnc4c3nnn4Cc3ccccc3)nc12", "target": "NOX5", "assay": "enzyme activity, Amplex Red", "system": "NOX5-overexpressing cells", "measurement": "EC50", "value": "2600 ± 1000 nM"}
